Measurements collected from several papers.
Parts stem from different laboratories: compare values within a part only. Changes are numbered by the printed parent chain.

Block 1
Target: CCNB3, cyclin fold, Cln2 fusion (human)
Technique: yeast growth competition, sequencing
Matrix: yeast
Setting: weak parent motif
Relative to: not given
Reading: higher = stronger binding
Starting sequence: CDKN1B docking peptide (human); PSACRNLFGPVDH; partner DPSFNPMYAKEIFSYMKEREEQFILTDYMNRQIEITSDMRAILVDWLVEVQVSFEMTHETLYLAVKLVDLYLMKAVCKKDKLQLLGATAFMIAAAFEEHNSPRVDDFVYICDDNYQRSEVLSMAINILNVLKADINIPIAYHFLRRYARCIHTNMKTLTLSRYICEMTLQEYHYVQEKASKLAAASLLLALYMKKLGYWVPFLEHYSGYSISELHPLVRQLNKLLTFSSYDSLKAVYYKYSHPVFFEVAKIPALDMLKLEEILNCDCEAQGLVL
Change | normalised enrichment score
PSACANLFGPVDH [R5A] | -0.233
PSACRNLFTPVDH [G9T] | 0.573
PSACRNLIGPVDH [F8I] | 0.287
PSACRNHFGPVDH [L7H] | -0.00141
PSACVNLFGPVDH [R5V] | 0.271
PYACRNLFGPVDH [S2Y] | -0.278
PSACRNLFGPVDR [H13R] | 0.424
PSACRNLFGLVDH [P10L] | 0.356
PSACRNLYGPVDH [F8Y] | -0.144
PSACRNLFGPVDF [H13F] | 0.788
PSACRNLCGPVDH [F8C] | -0.0431
PSAQRNLFGPVDH [C4Q] | -0.019
VSACRNLFGPVDH [P1V] | 0.224
LSACRNLFGPVDH [P1L] | 0.221
PSDCRNLFGPVDH [A3D] | 0.189
PSACMNLFGPVDH [R5M] | 0.203
PSACRNLFGPHDH [V11H] | 0.701
PSACRNLFGEVDH [P10E] | 0.392
PSACRNLFGIVDH [P10I] | 0.0767
PSACRNLFCPVDH [G9C] | 0.24
PSACRNLMGPVDH [F8M] | 0.236
PSACRFLFGPVDH [N6F] | 0.157
PSACRNLFGPVYH [D12Y] | 0.473

Block 2
Target: Interferon regulatory factor 3, full length, phosphomimetic (IRF3, Homo sapiens, UniProt Q14653, residues 1-427, S386D/S396D/S398D/S402D/T404D/S405D)
Technique: protein-binding microarray
Molecule type: double-stranded DNA, one strand shown
Matrix: in vitro
Tested at: 2540 nM top
Setting: 60-bp whole probe
With: salmon DNA 0.4 mg/ml
Relative to: random background probes
Reading: higher = stronger binding
Shared flanks, not repeated: GCCTAGCAC … GTCTTGATTCGCTTGACGCTGCTG
Residues (chain): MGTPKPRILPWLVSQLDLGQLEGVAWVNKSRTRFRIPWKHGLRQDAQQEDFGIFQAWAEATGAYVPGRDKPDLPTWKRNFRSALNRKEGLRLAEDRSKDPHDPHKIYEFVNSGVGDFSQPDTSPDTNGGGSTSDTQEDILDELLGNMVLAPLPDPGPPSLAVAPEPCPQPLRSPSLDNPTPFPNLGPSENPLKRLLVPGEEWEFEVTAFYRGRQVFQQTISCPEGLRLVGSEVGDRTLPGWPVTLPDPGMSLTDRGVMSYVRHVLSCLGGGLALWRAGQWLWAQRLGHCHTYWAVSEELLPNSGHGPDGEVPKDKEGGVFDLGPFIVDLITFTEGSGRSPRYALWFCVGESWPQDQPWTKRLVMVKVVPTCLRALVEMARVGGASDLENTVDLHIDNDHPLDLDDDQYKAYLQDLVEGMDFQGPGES
Sequence | fitted relative affinity [z-score]
TTAGCTATCGGTATCGGTTAGTGCTAG | 3.21
GACTGTATCGGTATCGGGACGTGCTAG | 4.48
TTAGTTATCCTTTTCCTTTAGTGCTAG | 6.04
TCATTTCTCAACCTCCAACTGTGCTAG | 2.26
TTAGGACTGGGGTATCGGTTAGTGCTA | 0.0185
TCATCTCTCATGTTACAACTGTGCTAG | 1.38
TTAGAACTGCTACTGCTTTAGTGCTAG | -0.666
GCCACTTTCCATTTCTGTTTGTGCTAG | 7.29
TCATATTTATTTTTACAACTGTGCTAG | 1.32
TTAGGTATCCTCTTCCTTTAGTGCTAG | 2.39
AACGATTCCAGTTTCGAGACGTGCTAG | 3.19
TTAGGACTGGACTTTCGGCTAGTGCTA | -0.483
TTAGGTTTCCTTCTCCTTCAGTGCTAG | 10.4
TTAGATATTGGGTATCGATTAGTGCTA | -0.102
TTAGATCTCAGTATCGCTTAGTGCTAG | 0.886
GTAGATATCGGGACTGGATTAGTGCTA | 0.0458
TCATGGTTCTGCTTCTTACTGTGCTAG | 0.0566
GGACTCACCTAGTTTCATTCCGTGCTA | 1.6
GACTATCTCAGTCTCGAGACGTGCTAG | 0.671
TTAGGTCTCCTGCTGCTTTAGTGCTAG | -0.262
TTATGTTTCCTTTTCCTTTAGTGCTAG | 10.8
GACGGTCTCCTTATCCCGACGTGCTAG | 3.28
GACCATATCAGACTGGAGACGTGCTAG | 1.01

Block 3
Target: ABI1, truncated, D143A, DHFR fusion (Arabidopsis thaliana)
Technique: DHFR PCA, deep sequencing
Matrix: yeast
Setting: methotrexate growth selection, single substitutions
With: (+)-ABA 58 µM
Relative to: wild-type fitted maximum
Reading: higher = stronger binding
Starting sequence: PYL1, truncated, DHFR fusion (Arabidopsis thaliana); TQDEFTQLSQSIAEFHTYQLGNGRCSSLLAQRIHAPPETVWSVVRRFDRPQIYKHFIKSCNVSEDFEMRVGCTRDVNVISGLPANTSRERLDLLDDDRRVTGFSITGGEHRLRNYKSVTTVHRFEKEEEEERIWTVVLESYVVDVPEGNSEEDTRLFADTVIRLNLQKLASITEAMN
Change | relative binding score
L20Y | 85.6%
T173M | 70.5%
S117G | 21.5%
T101D | -7.74%
G21W | 77.3%
T73C | 82.3%
V121K | -4.37%
R69C | 82.8%
E174A | 68.9%
T6Q | 96.7%
I162N | 25.1%
E151V | 85.1%
A84N | 17.9%
L112R | -3.93%
L91A | -1.28%
V70W | 14.7%
L20I | 89.4%
I33S | 6.74%

Block 4
Target: Ras GTPase-activating protein-binding protein 1, full length (G3BP1, Homo sapiens, UniProt Q13283)
UniProt Q13283, sequence (whole entry, looked up): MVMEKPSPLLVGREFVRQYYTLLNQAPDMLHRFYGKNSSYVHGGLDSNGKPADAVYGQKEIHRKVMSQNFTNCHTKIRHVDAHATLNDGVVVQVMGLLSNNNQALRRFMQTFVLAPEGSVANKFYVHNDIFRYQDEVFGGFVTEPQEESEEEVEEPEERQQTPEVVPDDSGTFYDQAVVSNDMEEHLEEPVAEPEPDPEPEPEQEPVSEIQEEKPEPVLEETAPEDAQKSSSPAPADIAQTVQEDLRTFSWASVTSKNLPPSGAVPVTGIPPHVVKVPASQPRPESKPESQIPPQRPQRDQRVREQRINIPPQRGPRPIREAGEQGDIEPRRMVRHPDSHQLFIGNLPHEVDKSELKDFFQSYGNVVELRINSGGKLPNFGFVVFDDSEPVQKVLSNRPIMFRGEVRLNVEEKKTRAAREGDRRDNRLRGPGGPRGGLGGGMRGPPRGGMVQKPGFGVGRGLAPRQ
Technique: RNA Bind-n-Seq
Molecule type: RNA
Matrix: in vitro
Tested at: 200 nM
Setting: whole 134-nt RNA, ends assumed
With: 150 mM KCl
Relative to: input library
Reading: higher = stronger binding
Sequence | log2 enrichment
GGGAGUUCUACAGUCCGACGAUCACCAUGCAGGUGGGCAUCUUUGGGAAGUGGGGCAAGCGGGGGAUAGGGAGGGGGGUAACACUUUGGGAACAGGUGGUCCCAGGUCGUUUCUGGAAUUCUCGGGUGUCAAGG | 1.16
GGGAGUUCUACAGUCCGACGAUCACCAUGCAGGUGGGCAUCUUUGGGAAGUGGGGCAAGGGGGGGAUAGGGAGCGGGGUAACACUUUGGGAACAGGUGGUCCCAGGUCGUUUCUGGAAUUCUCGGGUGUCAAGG | 1.27
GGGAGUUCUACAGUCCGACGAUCCUGUGCUACACAUCGUAUGUACCGAAUCGGGGUUUUUGGGGAAAAAGGGGUUUUUUUGGGGAAAGUAUUAUGUUACGCCGUUCGGAUCUGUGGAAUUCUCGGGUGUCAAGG | -0.16
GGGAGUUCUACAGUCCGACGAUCUGGGAGGUGGAUUUUGUUUAUUUUUUUAGCUCAUUUCCAGGGGUGGGAAUUUUUUUUUAAUAUGUGUCGUGAAUAAAGUUGUUUUUGAAAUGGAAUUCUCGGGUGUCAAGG | 0.24
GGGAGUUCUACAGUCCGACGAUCCCUCAAGUCCUGUGCUACACAUCGUAUGUACCGAAUCGGGGUGGGUGGGUGGGAAAGUAUUAUGUUACGCCGUUCGGAUCUGCACUUCCAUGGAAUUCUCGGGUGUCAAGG | -0.00319
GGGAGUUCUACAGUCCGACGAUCUUACACAAACCUGCAGGUGAAGACAGGCCAGCGGACCCUCAUCAACCCCAAGCCCUGUGGCCAGUUUUGCUGCUGUGAAGUGCUGGGCUGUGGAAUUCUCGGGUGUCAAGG | -0.475
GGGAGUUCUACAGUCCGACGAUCUCCAUGCAGGUGGGCAUCUUUGGGAAGUGGGGCAAGGGGGGGAUAGGGAGGGGGGUAACACUUUGGGAACAGGUGGUCCCAGGUCGUUUCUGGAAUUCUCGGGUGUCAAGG | 1.42
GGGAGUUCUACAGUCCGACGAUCACCAUGCAGGUGGGCAUCUUUGGGAAGUGGGGCAAGGGGGGAAAAGGGAGGGGGGUAACACUUUGGGAACAGGUGGUCCCAGGUCGUUUCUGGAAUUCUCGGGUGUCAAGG | 1.01
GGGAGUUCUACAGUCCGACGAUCAAGUCCUGUGCUACACAUCGUAUGUACCGAAUCGGUUUGGGGUUUGGGGUUUGGGGAAAGUAUUAUGUUACGCCGUUCGGAUCUGCACUUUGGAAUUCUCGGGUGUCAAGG | -0.354
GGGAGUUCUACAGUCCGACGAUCCACAGACAACACGCACCCACACAGACACAGACGGAAGGGGUUGGGAUGGGGACAGGGUGCACAGCAGGGCGGGGUAGGACCCCAGCCCCUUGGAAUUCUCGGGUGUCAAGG | 1.94

Repeated from above (block 1):
Change | normalised enrichment score
PSACRNLCGPVDH [F8C] | -0.0431
PSACANLFGPVDH [R5A] | -0.233
PSACRNLFGEVDH [P10E] | 0.392
PSACMNLFGPVDH [R5M] | 0.203
PSACRNLFGIVDH [P10I] | 0.0767
